# Published values collected from several papers.
# Numbered parts are unrelated; each lists some results of a single study. Substitutions count along the parent as printed.

# Study 1
# Target: JUNB, bZIP domain (human)
# Technique: DHFR protein complementation
# Matrix: yeast
# Setting: single substitutions, most at no-binding floor
# Relative to: wild-type JUN-FOS pair
# Direction: higher = stronger binding
# Parent: JUN, bZIP domain (human); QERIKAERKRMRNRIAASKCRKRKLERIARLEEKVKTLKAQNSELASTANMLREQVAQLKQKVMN; partner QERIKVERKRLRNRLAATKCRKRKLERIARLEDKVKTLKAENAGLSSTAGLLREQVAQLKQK
Variant,binding fitness
Q41K,-1.22 natural log
M51A,-0.906 natural log
R53I,-1.45 natural log
L38T,-1.35 natural log
A29E,-1.27 natural log
N42C,-1.43 natural log
Q41Y,-1.41 natural log
I28D,-1.38 natural log
A29P,-1.35 natural log
T37N,-0.91 natural log
Q58P,-1.49 natural log
A29L,-1.32 natural log
R30C,-1.26 natural log
L45N,-1.52 natural log
S43M,-1.05 natural log
A46P,-1.51 natural log
N42L,-1.47 natural log
N42W,-1.46 natural log
S47N,-0.886 natural log
Q41E,-0.953 natural log

# Study 2
# Target: RNA binding protein fox-1 homolog 2, RRM domain, GST-SBP tag (RBFOX2, Homo sapiens, UniProt O43251-10, residues 100-194)
# Technique: RNA Bind-n-Seq
# Form: RNA
# Matrix: in vitro
# Tested at: 365 nM
# Setting: natural RNA segment, single round, ends assumed
# Relative to: no-protein control
# Direction: higher = stronger binding
# Constant ends, left off below: GGGAGUUCUACAGUCCGACGAUC … UGGAAUUCUCGGGUGCCAA
# Residues (chain): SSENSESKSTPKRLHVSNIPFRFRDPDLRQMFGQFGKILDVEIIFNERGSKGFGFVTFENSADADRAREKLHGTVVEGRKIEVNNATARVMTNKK
Strand,RBNS enrichment (R)
GAAAAAUGGGCAACUUUUACAUUUGACUACAUUAUAUACCUAUGUAUAAAAGUGCGGUGUAACCAUAGACCAUAGCUGCAGGAUAACCAAUUAGUCACUCUUAGAGUAAU,0.317
GCCACAGCAUCUCACACCCCAGAGGCCUGGAGCAGAGGGAGAUUGGCUGAACUUGAUAGCAGACCUGCUCGGGUCCCUGCCUCCCACUCUGGCCUCUGCCUUUCUCCCUC,0.622
CCCAUACCCUCACCCUUAAAAUUCUCCUGUAACUCAACUAACAAAAUCAAGCCUGAUUCAAAACAUCCUAGGGUGUUUUAAACACACCAUCUGGUGCCAAAUGAAGAUUU,1.39
UUCACUGACCAUUGAGGGACUACAGAAAUCAGAAAUGGAUCCAAACUCAGAAGAGACCAUCCAAUCAUGAGCAAGUGACCCAGUCCCCUUUCCUCUCUGUAGAGGGAUGA,0.256
CCCUUUAAAGUCAUGUUGACUAAUGUUUUCCUCCUUGUUUGUAUUCAGAUUUCCAAAAUUUCACUCAUACAAGGGAAGAGACUCCAUUUAGCUUAACGGUAGUCUUUAGA,0.322
GGAGUUUUUUUCCUCCACAUUUUGAGAUUUUGUGAUAAAUGGGAUGUGUGCCCACCCCUGACAUCUGUCCAUGUUGUCUAGACUCCACCUGUCCACGGUUCCUUUGUUCU,0.504
GAGACACGCCUUUUUACUAGUUCAUUUGCAUUUAAAUCAGUGAUCCUGUUCUGUGGCAUUCAUGAAAAACAAGUUGAAGAAUUUGUUUAUCUGGAAUUGUUUCUAAAUAU,0.448
UGGCCUCUGCGGCCAGGAAGCCUGACACUAGGCACCCCCCAGGCGAGAGCUAGUGGGGUGCAGAGGGCCCCAUGCCAGACAGCCCUUGGGGCUCGUUGCACUUUAAGAAA,0.301
UUUUAACGCACAACUUGCUUGUACAGUAAACUGUCUUCUGUACUAUUUAACUGUAAAAUGGAAUUUUGACUGAUUUGUUACAAUAAUAUAACUCUGAGAUGUGUGGAAGG,0.509
CAGAGGAUGUGGUCAUACAGGAUGGCUCCCAUGUGGGCCUAGAACCCAGGAUGCUUCACUCUUGACUCCAUGCUCUUCCUUUUAUACCAUGUGGCUGUGAAUACAUACUA,0.757
UUUCUGUGACAGGUAACAAAUUUGGGGAAGACAGCACAAUCUUCUUGAAUGUAGCUCUUGGGAAUGCAUUAUUACAUCCAUUUCUGUAACAUAAUAAUAUGUUGCAUGCA,9.6
AUCUAAUUCAGUAUAGAAUAUGCUGUUUGGCAAUGAGUUUGUGGCCAGAUUUCAAAUAGGGAGUUAAGUGGUACUUUCACAAUCCAAAGAUUUUUAGUUAAAAAUCAUGU,0.474

# Study 3
# Target: ABI1, truncated, D143A, DHFR fusion (Arabidopsis thaliana)
# Technique: DHFR PCA, deep sequencing
# Matrix: yeast
# Setting: methotrexate growth selection, single substitutions
# Added: (+)-ABA 200 µM
# Relative to: wild-type fitted maximum
# Direction: higher = stronger binding
# Parent: PYL1, truncated, DHFR fusion (Arabidopsis thaliana); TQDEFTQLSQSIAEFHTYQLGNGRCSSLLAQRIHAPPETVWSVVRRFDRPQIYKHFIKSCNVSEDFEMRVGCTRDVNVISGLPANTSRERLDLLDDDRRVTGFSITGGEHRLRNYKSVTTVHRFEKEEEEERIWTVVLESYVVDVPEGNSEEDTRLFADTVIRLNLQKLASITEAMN
Variant,relative binding score
V137M,19%
H110W,17.5%
W41V,-32.6%
E152C,89.4%
R155C,90.7%
I105Q,-4.58%
D95Y,62.7%
S150A,74.8%
D65K,103%
Y141L,-6.78%
R49M,94.9%
S42G,98.3%
R46S,94.8%
Q31F,46.5%
E4H,88.8%
F47K,-9.22%

# Study 4
# Target: Prothrombin, mature alpha-thrombin (F2, Homo sapiens, UniProt P00734)
# Technique: aptamer microarray, sandwich
# Form: DNA with 2'F-ANA
# Matrix: in vitro
# Tested at: 200 nM
# Setting: whole 15-mer aptamer, many near background
# Added: Cy3 exosite-II aptamer, 400 nM
# Direction: higher = stronger binding
# Strand: GGTTGGTGTGGTTGG
Modification,mean fluorescence intensity
2'F-ANA at 4 6 10 11 12 13 14,55 a.u.
2'F-ANA at 1 3 9 12 13 14 15,105 a.u.
2'F-ANA at 1 5 7 10 13 14 15,44.9 a.u.
2'F-ANA at 5 6 7 8 13,87.5 a.u.
2'F-ANA at 4 5 6 7 8 11 13 14 15,54.3 a.u.
2'F-ANA at 2 4 6 9 10 12 13 15,105 a.u.
2'F-ANA at 3 4 5 6 8 9 14,52.2 a.u.
2'F-ANA at 1 2 3 4 7 8 9 10 11 12 13 15,61.3 a.u.
2'F-ANA at 1 3 4 6 9 10 11 12 14 15,56.1 a.u.
2'F-ANA at 1 2 8 11 13 14,53 a.u.
2'F-ANA at 2 4 5 6 7 10 11 12 13,92 a.u.
2'F-ANA at 1 2 4 5 7 8 9 10 11 12 13,50.1 a.u.
2'F-ANA at 1 2 3 4 8 10 11 14,55 a.u.
2'F-ANA at 1 4 5 6 7 8 9 12 13 14 15,51 a.u.
2'F-ANA at 4 7 8 10 12 13 15,95.6 a.u.
2'F-ANA at 2 4 5 7 10 13,46.8 a.u.
2'F-ANA at 4 8 10 11 13,81.6 a.u.
2'F-ANA at 3 5 7 9 11 13,89.5 a.u.
2'F-ANA at 1 3 4 5 7 8 10 12 13,50.3 a.u.
2'F-ANA at 1 4 5 6 7 9 11,77.7 a.u.
2'F-ANA at 1 3 4 6 8 10 11 13 15,56.6 a.u.
2'F-ANA at 1 5 6 7 10 11 15,48.7 a.u.
2'F-ANA at 2 3 4 5 6 7 9 10 15,48.3 a.u.
2'F-ANA at 1 3 5 7 10 12 14 15,45.3 a.u.

# Study 5
# Target: Histone acetyltransferase KAT6A, winged helix 2, GST fusion (KAT6A, Homo sapiens, UniProt Q92794, residues 85-181)
# Technique: protein binding microarray
# Form: double-stranded DNA, one strand shown
# Matrix: in vitro
# Tested at: not given
# Setting: 8-mer, flanks averaged, mean of 2 arrays, mostly near background
# Relative to: not given
# Direction: higher = stronger binding
# Construct (chain): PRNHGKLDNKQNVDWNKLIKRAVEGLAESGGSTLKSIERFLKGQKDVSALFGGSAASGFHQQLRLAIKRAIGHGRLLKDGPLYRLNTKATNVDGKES
Strand,E-score
GTGCTCTA,0.121
CAGATACG,-0.145
AATCTGAA,-0.0541
CCTGTTTA,-0.16
ACTACTCA,-0.0576
AGCGGGGC,0.193
CAGACCAA,0.101
ACGGGGCG,0.174
AGGGGTAA,-0.194
TCGAAGAA,0.0715
AAAACTTC,0.00579
GAACTGAC,0.0139
AGTGCTTC,-0.0465
ACGGCGTA,-0.0196
AATTTGCC,0.0218
ACTGGCAA,-0.0577
ACCATCAG,-0.124
GGTCTGCA,0.0911
GACACATA,-0.0914
CAGAGTCG,-0.173
CGATTGAC,-0.124
CGTCGAAC,0.0423
AGCCGCCG,0.133

# Study 6
# Target: CCNB3, cyclin fold, Cln2 fusion (human)
# Technique: yeast growth competition, sequencing
# Matrix: yeast
# Setting: weak parent motif
# Relative to: not given
# Direction: higher = stronger binding
# Parent: PKMYT1 docking peptide (human); SFEPRNLLSLFED
Variant,normalised enrichment score
SREPRNLLSLFED [F2R],0.269
SFEPWNLLSLFED [R5W],0.595
SFGPRNLLSLFED [E3G],0.14
SFEPFNLLSLFED [R5F],0.292
SFEPRNLLSLFVD [E12V],0.184
RFEPRNLLSLFED [S1R],0.271
VFEPRNLLSLFED [S1V],0.784
STEPRNLLSLFED [F2T],0.708
DFEPRNLLSLFED [S1D],0.434
SFEPRNLLSLFEV [D13V],0.867
SYEPRNLLSLFED [F2Y],0.0399
SFEPRNLLSLFEY [D13Y],0.443
SFEPRNLHSLFED [L8H],0.203
SFEPRNLLSLCED [F11C],-0.119
SFEPRNLLSLFEE [D13E],0.0736
SFEPRNLLQLFED [S9Q],0.62
SFPPRNLLSLFED [E3P],0.915
SFVPRNLLSLFED [E3V],0.514
SFEPSNLLSLFED [R5S],0.466
MFEPRNLLSLFED [S1M],0.692
SFEPRNLLSLMED [F11M],0.282
SFEPRNWLSLFED [L7W],0.302
SFEPRNLLSLFTD [E12T],0.144

# Repeated from above (study 3):
Variant,relative binding score
Q31F,46.5%
I105Q,-4.58%
D65K,103%
H110W,17.5%
E4H,88.8%
F47K,-9.22%
V137M,19%
S42G,98.3%
S150A,74.8%
R155C,90.7%
Y141L,-6.78%
E152C,89.4%
W41V,-32.6%
R49M,94.9%
D95Y,62.7%
